Results of several laboratories.
Each line is one published result; not all experiments were run side by side. Numbers after ± are the reported error.

Cc1c(C)[n+]([O-])c2c(OC(=O)N3CCN(C)CC3)cccc2[n+]1[O-] — log effective permeability (PAMPA; artificial membrane in PBS; 50 µM, 5 h): -4.48
COc1ccnc(C(=O)N[C@H]2COC(=O)[C@H](Cc3ccccc3)[C@@H](OC(=O)C(C)C)[C@H](C)OC2=O)c1OCOC(=O)C(C)C — log Kow (pH 9, 20 °C): 4.3
Clc1cc(Cl)c(-c2ccc(Cl)c(Cl)c2Cl)cc1Cl — log K(PDMS-water) (fresh water; 20 °C, SSP sampler, 100 µm): 6.36 ± 0.04
CNC(=O)Oc1cc(C)c(SC)c(C)c1 — log Freundlich coefficient (SPME sorption isotherm; PBS): 2.7
Clc1ccc(-c2ccc(Cl)c(Cl)c2)cc1Cl — log K(PDMS-water) (fresh water; 20 °C, SSP sampler, 100 µm): 5.44 ± 0.04
CC(=O)N[C@@H](CC(N)=O)C(=O)N[C@@H](CCCNC(=N)N)C(=O)N[C@@H](CC(C)C)C(=O)N[C@H]1CSSC[C@@H](C(=O)N[C@H](C(N)=O)[C@@H](C)O)NC(=O)[C@H](CCCNC(=N)N)NC(=O)[C@H](Cc2c[nH]cn2)NC(=O)[C@H](C)NC(=O)CNC(=O)[C@H](Cc2c[nH]c3ccccc23)NC(=O)[C@H](CC(=O)O)NC(=O)[C@H](CCC(N)=O)NC(=O)[C@H](Cc2c[nH]c3ccccc23)NC(=O)[C@H](C(C)C)NC1=O — log retention factor (isocratic RP-HPLC; C18 column; pH 7.4, 25 °C, elution method 2; higher = more lipophilic): -0.267
[O-][n+]1c2cccc(O)c2[n+]([O-])c2cccc(O)c21 — log effective permeability (PAMPA; artificial membrane in PBS; 50 µM, 5 h): -5.64
c1ccc2c(c1)-c1ccc3ccc4cccc5cc-2c1c3c45 — log K(PDMS-water) (fresh water; 20 °C, S100 sampler, 100 µm): 5.57 ± 0.05
O=C(Oc1cccc2c1[n+]([O-])c1ccccc1[n+]2[O-])N1CCCC1 — log effective permeability (PAMPA; artificial membrane in PBS; 50 µM, 5 h): -4.91
Clc1ccc(-c2cc(Cl)c(Cl)cc2Cl)cc1Cl — log K(PDMS-water) (fresh water; 20 °C, S100 sampler, 100 µm): 6.04 ± 0.04
Cc1cccc(C)c1N(Cn1cccn1)C(=O)CCl — log Freundlich coefficient (SPME sorption isotherm; PBS): 1.72
c1cc2ccc3cccc4ccc(c1)c2c34 — log K(PDMS-water) (fresh water; 12 (unit not given), 20 °C): 4.3 ± 0.03
Nc1cnn(-c2ccccc2)c(=O)c1Cl — log Freundlich coefficient (SPME sorption isotherm; PBS): 1.18
Clc1ccc(-c2cc(Cl)c(Cl)c(Cl)c2)cc1Cl — log K(PDMS-water) (fresh water; 20 °C, SSP sampler, 100 µm): 5.81 ± 0.17
CC[C@H](C)[C@H](NC(C)=O)C(=O)N[C@H]1CSSC[C@@H](C(=O)N[C@H](C(N)=O)[C@@H](C)O)NC(=O)[C@H](CCCNC(=N)N)NC(=O)[C@H](Cc2c[nH]cn2)NC(=O)[C@H](C)NC(=O)CNC(=O)[C@H](Cc2c[nH]c3ccccc23)NC(=O)[C@H](CC(=O)O)NC(=O)[C@H](CCC(N)=O)NC(=O)[C@H](Cc2cn(C)c3ccccc23)NC(=O)[C@H](C(C)C)NC1=O — log retention factor (isocratic RP-HPLC, C18; 32% acetonitrile, phosphate pH 7.4, 1% TFA; 25 °C): 0.263
CCOP(=S)(OCC)Oc1cc(C)nc(C(C)C)n1 — log Freundlich coefficient (SPME sorption isotherm; PBS): 2.58
CC[C@H](C)[C@H](NC(C)=O)C(=O)N[C@H]1CSSC[C@@H](C(=O)N[C@H](C(N)=O)[C@@H](C)O)NC(=O)[C@H](CCCNC(=N)N)NC(=O)[C@H](Cc2c[nH]cn2)NC(=O)[C@@](C)(CC)NC(=O)CNC(=O)[C@H](Cc2c[nH]c3ccccc23)NC(=O)[C@H](CC(=O)O)NC(=O)[C@H](CCC(N)=O)NC(=O)[C@H](Cc2c[nH]c3ccccc23)NC(=O)[C@H](C(C)C)NC1=O — log retention factor (isocratic RP-HPLC, C18; 32% acetonitrile, phosphate pH 7.4, 1% TFA; 25 °C): 0.117
O=C(Oc1cccc2c1[n+]([O-])c1cccc(O)c1[n+]2[O-])N1CCCC1 — log effective permeability (PAMPA; artificial membrane in PBS; 50 µM, 5 h): -4.74
CC(=O)N[C@@H](CC(N)=O)C(=O)N[C@@H](CC(N)=O)C(=O)N[C@@H](CC(C)C)C(=O)N[C@H]1CSSC[C@@H](C(=O)N[C@H](C(N)=O)[C@@H](C)O)NC(=O)[C@H](CCCNC(=N)N)NC(=O)[C@H](Cc2c[nH]cn2)NC(=O)[C@H](Cc2cccc3ccccc23)NC(=O)CNC(=O)[C@H](Cc2c[nH]c3ccccc23)NC(=O)[C@H](CC(=O)O)NC(=O)[C@H](CCC(N)=O)NC(=O)[C@H](Cc2cccc3ccccc23)NC(=O)[C@H](C(C)C)NC1=O — log retention factor (isocratic RP-HPLC; C18 column; pH 7.4, 25 °C, elution method 2; higher = more lipophilic): 0.771
CN1CC[C@]23c4c5ccc(O)c4O[C@H]2[C@@H](O)C=C[C@@]3(O)[C@H]1C5 — log k amino protonation: 9.58
Oc1ccc(C(c2ccc(O)cc2)(C(F)(F)F)C(F)(F)F)cc1 — log D octanol/water (octanol/water): 4.47
COc1cccc2c1[n+]([O-])c1cccc(O)c1[n+]2[O-] — log effective permeability (PAMPA; artificial membrane in PBS; 50 µM, 5 h): -4.94
CC[C@H](C)[C@H](NC(=O)[C@H](CCCNC(=N)N)NC(=O)[C@H](CCC(=O)O)NC(C)=O)C(=O)N[C@H]1CSSC[C@@H](C(=O)N[C@H](C(N)=O)[C@@H](C)O)NC(=O)[C@H](CCCNC(=N)N)NC(=O)[C@H](Cc2c[nH]cn2)NC(=O)[C@H](Cc2cccc3ccccc23)NC(=O)CNC(=O)[C@H](Cc2c[nH]c3ccccc23)NC(=O)[C@H](CC(=O)O)NC(=O)[C@H](CCC(N)=O)NC(=O)[C@H](Cc2c[nH]c3ccccc23)NC(=O)[C@H](C(C)C)NC1=O — log retention factor (isocratic RP-HPLC; C18 column; pH 7.4, 25 °C, elution method 2; higher = more lipophilic): 0.122
c1ccc2cc3c(cc2c1)-c1cccc2cccc-3c12 — log K(PDMS-water) (fresh water; 12 (unit not given), 20 °C, SSP sampler, 100 µm): 5.17 ± 0.05
CN(C)C(=O)Oc1cccc2c1[n+]([O-])c1cccc(O)c1[n+]2[O-] — log effective permeability (PAMPA; artificial membrane in PBS; 50 µM, 5 h): -5.06
C=CC[C@@]1(C)NC(=O)CNC(=O)[C@H](Cc2c[nH]c3ccccc23)NC(=O)[C@H](CC(=O)O)NC(=O)[C@H](CCC(N)=O)NC(=O)[C@H](Cc2c[nH]c3ccccc23)NC(=O)[C@H](C(C)C)NC(=O)[C@@H](NC(=O)[C@@H](NC(C)=O)[C@@H](C)CC)CSSC[C@@H](C(=O)N[C@H](C(N)=O)[C@@H](C)O)NC(=O)[C@H](CCCNC(=N)N)NC(=O)[C@H](Cc2c[nH]cn2)NC1=O — log retention factor (isocratic RP-HPLC, C18; 32% acetonitrile, phosphate pH 7.4, 1% TFA; 25 °C): 0.136
Clc1ccc(-c2ccc(Cl)c(Cl)c2)c(Cl)c1 — log K(PDMS-water) (fresh water; 20 °C, SSP sampler, 100 µm): 5.6 ± 0.02
CN1CC[C@]23c4c5ccc(O)c4O[C@H]2[C@@H](O)CC[C@H]3[C@H]1C5 — log tautomerization constant: 0
CN1CCN(C(=O)Oc2cccc3c2[n+]([O-])c2ccccc2[n+]3[O-])CC1 — log effective permeability (PAMPA; artificial membrane in PBS; 50 µM, 5 h): -4.85
CC[C@H](C)[C@H](NC(=O)[C@H](CCCNC(=N)N)NC(=O)[C@H](CCC(=O)O)NC(C)=O)C(=O)N[C@H]1CSSC[C@@H](C(=O)N[C@H](C(N)=O)[C@@H](C)O)NC(=O)[C@H](CCCNC(=N)N)NC(=O)[C@H](Cc2c[nH]cn2)NC(=O)[C@H](Cc2cccc3ccccc23)NC(=O)CNC(=O)[C@H](Cc2c[nH]c3ccccc23)NC(=O)[C@H](CC(=O)O)NC(=O)[C@H](CCC(N)=O)NC(=O)[C@H](Cc2cccc3ccccc23)NC(=O)[C@H](C(C)C)NC1=O — log retention factor (isocratic RP-HPLC; C18 column; pH 7.4, 25 °C, elution method 2; higher = more lipophilic): 0.514
CN1CC[C@]23c4c5ccc(O)c4O[C@H]2[C@@H](O)C=C[C@H]3[C@H]1C5 — log k protonation constant (phenolate site): 9.33
CC[C@H](C)[C@H](NC(C)=O)C(=O)N[C@H]1CSSC[C@@H](C(=O)N[C@H](C(N)=O)[C@@H](C)O)NC(=O)[C@H](CCCNC(=N)N)NC(=O)[C@H](Cc2cnc[nH]2)NC(=O)[C@H](C)NC(=O)CNC(=O)[C@H](Cc2c[nH]c3ccccc23)NC(=O)[C@H](CC(=O)O)NC(=O)[C@H](CCC(N)=O)NC(=O)[C@H](Cc2c[nH]c3ccccc23)NC(=O)[C@H](C(C)C)NC1=O — log retention factor (isocratic RP-HPLC; C18 column; pH 7.4, 25 °C, elution method 2; higher = more lipophilic): -0.018
CN1CC[C@]23c4c5ccc(O)c4O[C@H]2[C@@H](O)CC[C@@]3(O)[C@H]1C5 — log k amino protonation: 10
CN1CCN(C(=O)Oc2cccc3c2[n+]([O-])c2cc4ccccc4cc2[n+]3[O-])CC1 — log effective permeability (PAMPA; artificial membrane in PBS; 50 µM, 5 h): -5.26
